{"data": "Measurements pooled from the literature", "note": "Numbered parts are unrelated; each lists some results of a single study."}
{"data": "Block 1", "target": "Histone acetyltransferase KAT6A, winged helix 2, GST fusion (KAT6A, Homo sapiens, UniProt Q92794, residues 85-181)", "technique": "protein binding microarray", "molecule type": "double-stranded DNA, one strand shown", "matrix": "in vitro", "tested at": "not given", "setting": "8-mer, flanks averaged, mean of 2 arrays, mostly near background", "reference": "not given", "reading": "higher = stronger binding", "Residues (chain)": "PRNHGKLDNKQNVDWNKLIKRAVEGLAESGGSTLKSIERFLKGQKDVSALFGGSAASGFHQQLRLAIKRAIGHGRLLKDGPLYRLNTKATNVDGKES"}
{"Strand": "CAGCATCG", "E-score": 0.0133}
{"Strand": "CTGGAGTC", "E-score": -0.043}
{"Strand": "ACCGCCCT", "E-score": -0.0818}
{"Strand": "AGGGATGC", "E-score": -0.197}
{"Strand": "ATTACCTA", "E-score": -0.15}
{"Strand": "ACCTAGCC", "E-score": -0.0272}
{"data": "Block 2", "target": "Sal-like protein 4, full length isoform B (SALL4, Homo sapiens, UniProt Q9UJQ4-2, residues 1-616)", "technique": "universal PBM", "molecule type": "double-stranded DNA, one strand shown", "matrix": "in vitro", "tested at": "not given", "setting": "8-mer, flanks averaged, mean of replicates", "reading": "higher = stronger binding"}
{"Strand": "CGGAACAA", "E-score": 0.0311}
{"Strand": "ACAGCAGG", "E-score": -0.073}
{"Strand": "GCAAAGCA", "E-score": -0.139}
{"Strand": "CGCACTCA", "E-score": -0.127}
{"Strand": "TCGCTCCA", "E-score": 0.0157}
{"Strand": "ATCGACAC", "E-score": -0.0398}
{"data": "Mixed results", "G3BP1 full length": "Ras GTPase-activating protein-binding protein 1, full length (G3BP1, Homo sapiens, UniProt Q13283)", "chain of UniProt Q13283 (whole entry, looked up)": "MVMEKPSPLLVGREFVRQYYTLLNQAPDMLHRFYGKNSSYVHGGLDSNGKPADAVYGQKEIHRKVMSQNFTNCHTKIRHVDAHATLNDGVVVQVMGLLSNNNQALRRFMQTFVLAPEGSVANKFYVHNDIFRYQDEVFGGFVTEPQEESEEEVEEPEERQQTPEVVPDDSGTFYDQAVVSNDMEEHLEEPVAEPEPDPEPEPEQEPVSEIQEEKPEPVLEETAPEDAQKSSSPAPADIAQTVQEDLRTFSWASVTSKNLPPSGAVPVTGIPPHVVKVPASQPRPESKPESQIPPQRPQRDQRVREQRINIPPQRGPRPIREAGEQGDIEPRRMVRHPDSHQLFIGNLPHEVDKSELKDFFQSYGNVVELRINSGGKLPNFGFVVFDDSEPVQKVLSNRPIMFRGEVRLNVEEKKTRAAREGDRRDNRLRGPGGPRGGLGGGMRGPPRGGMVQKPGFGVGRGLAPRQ"}
{"Substance": "GGGAGUUCUACAGUCCGACGAUCCCUGUGCUACACAUCGUAUGUACCGAAUCGGGUUUUUUGGGUUUUUUGGGGUUUUUUGGGAAAGUAUUAUGUUACGCCGUUCGGAUCUGCUGGAAUUCUCGGGUGUCAAGG", "target": "G3BP1 full length", "assay": "RNA Bind-n-Seq", "system": "RNA, in vitro", "conditions": "200 nM, whole 134-nt RNA, ends assumed, together with: 150 mM KCl", "scale": "reference: input library, higher = stronger binding", "measurement": "log2 enrichment", "result": -0.607}
{"Substance": "PhoQ, residues 284 288 289 292 302 303 SSCCRF", "target": "PhoP, residues 12 14 15 18 19 SQCLL (Escherichia coli, UniProt P23836)", "assay": "Sort-seq, item: YFP reporter", "system": "E. coli", "conditions": "PhoQ-PhoP variant library, together with: 10 µM Mg2+", "scale": "reference: high Mg2+ state, higher = stronger signaling", "measurement": "fold induction", "result": 13.6}
{"Substance": "GGGAGUUCUACAGUCCGACGAUCCUGUGCUACACAUCGUAUGUACCGAAUCGGGGAAAAAGGGGUUUUUGGGGAAAAAAAGGGGAAAGUAUUAUGUUACGCCGUUCGGAUCUGUGGAAUUCUCGGGUGUCAAGG", "target": "G3BP1 full length", "assay": "RNA Bind-n-Seq", "system": "RNA, in vitro", "conditions": "200 nM, whole 134-nt RNA, ends assumed, together with: 150 mM KCl", "scale": "reference: input library, higher = stronger binding", "measurement": "log2 enrichment", "result": -0.276}
